Measurements from different studies.
Each numbered part is a random draw from the data of one study; scales do not carry over between parts. Substitutions count along the parent as printed.

Sample 1
Target: BATF3, bZIP domain (human)
Technique: DHFR protein complementation
Medium: yeast
Setting: single substitutions, most at no-binding floor
Reference: wild-type JUN-FOS pair
Reading: higher = stronger binding
Parent: JUN, bZIP domain (human); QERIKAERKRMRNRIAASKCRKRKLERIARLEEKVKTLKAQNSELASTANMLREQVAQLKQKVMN; partner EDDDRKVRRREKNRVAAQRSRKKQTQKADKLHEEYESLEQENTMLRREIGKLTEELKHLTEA
`Q55Y` gave a binding fitness of -0.000618 natural log.
With `L31D` the binding fitness was 0.116 natural log.
The binding fitness of `K36R` is reported as 0.238 natural log.
`A57Y` gave a binding fitness of 0.186 natural log.
With `K39L` the binding fitness was 0.109 natural log.
With `E54F` the binding fitness was 0.0873 natural log.
For `M51I`, the binding fitness was 0.21 natural log.
With `A57K` the binding fitness was 0.274 natural log.
The binding fitness of `A29H` is reported as 0.169 natural log.
With `Q41W` the binding fitness was -0.967 natural log.
The binding fitness of `S43E` is reported as 0.249 natural log.
The binding fitness of `A46Q` is reported as 0.144 natural log.
`N42C` has a binding fitness of -0.0985 natural log.
`S47Q` has a binding fitness of 0.224 natural log.
The binding fitness of `E44P` is reported as -0.54 natural log.
The binding fitness of `A40P` is reported as -0.785 natural log.
With `A46S` the binding fitness was 0.202 natural log.
`V35W` gave a binding fitness of -0.071 natural log.
With `T48D` the binding fitness was 0.0828 natural log.
`M51P` has a binding fitness of -0.383 natural log.
The binding fitness of `A49P` is reported as -0.834 natural log.

Sample 2
Target: Histone acetyltransferase KAT6A, winged helix 2, GST fusion (KAT6A, Homo sapiens, UniProt Q92794, residues 85-181)
Technique: protein binding microarray
Molecule type: double-stranded DNA, one strand shown
Medium: in vitro
Tested at: not given
Setting: 8-mer, flanks averaged, mean of 2 arrays, mostly near background
Reference: not given
Reading: higher = stronger binding
Construct (chain): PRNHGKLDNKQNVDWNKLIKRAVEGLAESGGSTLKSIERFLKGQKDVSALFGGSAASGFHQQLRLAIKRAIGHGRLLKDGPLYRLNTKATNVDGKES
The E-score of `CGGTCTTC` is reported as 0.0288.
The E-score of `CGAGGGTC` is reported as 0.0387.
`GCTTCCAA` has an E-score of 0.116.
With `AGTGACTC` the E-score was -0.0816.
The E-score of `CTACCCGC` is reported as 0.164.
With `ATATTGGC` the E-score was -0.123.
`TAATAGCA` has an E-score of 0.09.
The E-score of `CCGAAATA` is reported as 0.0484.
`GATAACGC` gave an E-score of -0.0827.
With `CCGGCGAA` the E-score was 0.192.
`GAGAACCC` gave an E-score of -0.184.
For `TCAAAGAA`, the E-score was 0.0639.
`ATGGCCCG` has an E-score of 0.177.
`AGGGGACA` has an E-score of -0.00284.
With `AGTTCATA` the E-score was 0.0038.
With `ATCTTGTG` the E-score was -0.0703.
For `GTCTCAGA`, the E-score was -0.0131.
With `ATATCAGC` the E-score was -0.0961.

Sample 3
Target: human cyclin B2
Read-out: peptide binding
Technique: yeast competitive growth sequencing
Molecule type: peptide
Organism: Saccharomyces cerevisiae
Strain: cyclin B2-Cln2 fusion
Tested at: concentration not given
Setting: peptide tiling library
Reading: direction not given
`DKYDEGLYRFNSLNDL` — result for “binding enrichment score”: 0.644.
`KPKPVKPVTFSTGIKM` — result for “binding enrichment score”: -0.502.
`KRCATPVIIDEILPSK` — result for “binding enrichment score”: -0.258.
`PAKRRLELGE` — result for “binding enrichment score”: 0.572.
`SDSTVTKLDFDLEP` — result for “binding enrichment score”: 0.611.
`EAAPPTQEAQGETEPT`: “binding enrichment score” -0.335.
Under “binding enrichment score”, `DSDSDSEGGAAGGEAD` is recorded as 0.818.
Under “binding enrichment score”, `VLPGGVPSPGASLTSM` is recorded as -0.0997.
Under “binding enrichment score”, `SAVPLILPQAPSGPSY` is recorded as 0.0537.
For `SCCKRKLVVGNGPEGP`, “binding enrichment score” read -0.878.
Under “binding enrichment score”, `PARRRLRLSVDEVSSP` is recorded as 0.296.
For `FQDSGYNELKSCSFDN`, “binding enrichment score” read 0.652.
`LENIEPLQVSFAVLSS` — result for “binding enrichment score”: -0.245.
`CFRCLLFSFSGRSGVE`: “binding enrichment score” -0.804.

Other studies, line by line
The fold induction of `PhoQ, residues 284 288 289 292 302 303 TLSLKA` is reported as 1.33 (PhoP, residues 12 14 15 18 19 NFCKL (Escherichia coli, UniProt P23836); Sort-seq, refers to: YFP reporter; E. coli; PhoQ-PhoP variant library, with: 10 µM Mg2+; reference: high Mg2+ state, higher = stronger signaling).

Repeated from above (sample 2):
`GCTTCCAA` has an E-score of 0.116.
`TAATAGCA` has an E-score of 0.09.
With `AGTTCATA` the E-score was 0.0038.
`AGGGGACA` has an E-score of -0.00284.
With `ATCTTGTG` the E-score was -0.0703.
For `TCAAAGAA`, the E-score was 0.0639.
The E-score of `CGGTCTTC` is reported as 0.0288.
The E-score of `CTACCCGC` is reported as 0.164.
For `GTCTCAGA`, the E-score was -0.0131.
